# Measured values from different studies.
# Each numbered part is a random draw from the data of one study; scales do not carry over between parts. Values joined by “and” are separate records of one study, mostly repeats; a detail may differ.
# Sequence of UniProt Q00535 (whole entry, looked up): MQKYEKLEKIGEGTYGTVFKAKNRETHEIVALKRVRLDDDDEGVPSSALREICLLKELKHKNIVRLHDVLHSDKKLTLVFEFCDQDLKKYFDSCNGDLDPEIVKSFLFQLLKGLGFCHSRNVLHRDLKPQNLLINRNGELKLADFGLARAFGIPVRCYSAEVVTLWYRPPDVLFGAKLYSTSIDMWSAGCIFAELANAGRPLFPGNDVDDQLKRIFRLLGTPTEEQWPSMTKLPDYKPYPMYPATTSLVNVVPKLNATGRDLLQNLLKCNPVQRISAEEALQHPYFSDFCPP
# Sequence of UniProt Q8TDR2 (whole entry, looked up): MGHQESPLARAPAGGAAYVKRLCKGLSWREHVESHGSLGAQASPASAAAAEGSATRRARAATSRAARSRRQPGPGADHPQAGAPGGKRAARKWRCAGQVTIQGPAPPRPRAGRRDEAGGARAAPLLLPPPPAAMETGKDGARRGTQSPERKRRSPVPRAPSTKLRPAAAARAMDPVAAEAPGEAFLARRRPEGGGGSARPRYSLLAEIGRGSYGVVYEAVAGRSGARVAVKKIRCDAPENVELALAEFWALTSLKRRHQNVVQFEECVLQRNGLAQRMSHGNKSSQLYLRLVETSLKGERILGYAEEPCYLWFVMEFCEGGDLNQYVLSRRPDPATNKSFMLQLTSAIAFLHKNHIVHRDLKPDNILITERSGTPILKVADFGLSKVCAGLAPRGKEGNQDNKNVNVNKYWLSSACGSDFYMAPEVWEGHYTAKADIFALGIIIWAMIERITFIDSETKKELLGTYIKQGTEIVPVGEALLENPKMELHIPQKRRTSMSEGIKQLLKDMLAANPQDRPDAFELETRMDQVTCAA
# Sequence of UniProt O94768 (whole entry, looked up): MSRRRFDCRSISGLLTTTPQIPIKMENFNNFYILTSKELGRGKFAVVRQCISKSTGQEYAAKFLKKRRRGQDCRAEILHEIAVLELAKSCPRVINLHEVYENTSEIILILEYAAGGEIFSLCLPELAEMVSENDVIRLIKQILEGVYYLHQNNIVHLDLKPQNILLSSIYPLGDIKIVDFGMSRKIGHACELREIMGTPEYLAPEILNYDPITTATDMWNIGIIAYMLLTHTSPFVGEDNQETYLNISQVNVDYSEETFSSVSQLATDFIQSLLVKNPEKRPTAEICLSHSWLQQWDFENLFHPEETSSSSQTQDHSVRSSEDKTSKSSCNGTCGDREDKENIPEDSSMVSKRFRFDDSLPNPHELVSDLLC
# Sequence of UniProt O75582 (whole entry, looked up): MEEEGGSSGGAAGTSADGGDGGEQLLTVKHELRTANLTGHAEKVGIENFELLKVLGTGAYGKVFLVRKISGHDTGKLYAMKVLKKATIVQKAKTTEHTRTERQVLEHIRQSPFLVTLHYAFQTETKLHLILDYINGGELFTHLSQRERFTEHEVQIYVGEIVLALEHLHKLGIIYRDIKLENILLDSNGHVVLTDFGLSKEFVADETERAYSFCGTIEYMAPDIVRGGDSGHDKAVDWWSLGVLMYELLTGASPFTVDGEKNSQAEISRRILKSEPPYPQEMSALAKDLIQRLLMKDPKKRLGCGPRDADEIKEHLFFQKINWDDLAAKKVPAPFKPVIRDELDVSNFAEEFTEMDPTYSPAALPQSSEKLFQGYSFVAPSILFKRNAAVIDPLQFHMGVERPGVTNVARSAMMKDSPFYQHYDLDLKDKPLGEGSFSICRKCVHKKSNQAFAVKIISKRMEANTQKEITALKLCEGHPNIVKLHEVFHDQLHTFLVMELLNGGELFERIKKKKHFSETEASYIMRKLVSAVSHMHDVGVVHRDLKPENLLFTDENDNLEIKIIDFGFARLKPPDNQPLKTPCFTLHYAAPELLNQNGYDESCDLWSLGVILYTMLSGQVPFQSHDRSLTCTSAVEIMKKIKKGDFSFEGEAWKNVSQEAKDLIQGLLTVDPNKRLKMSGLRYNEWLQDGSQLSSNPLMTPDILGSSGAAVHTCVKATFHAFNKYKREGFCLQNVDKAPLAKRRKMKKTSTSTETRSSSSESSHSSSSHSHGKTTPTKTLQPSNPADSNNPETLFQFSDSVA
# Sequence of UniProt P07949 (whole entry, unmodified, looked up): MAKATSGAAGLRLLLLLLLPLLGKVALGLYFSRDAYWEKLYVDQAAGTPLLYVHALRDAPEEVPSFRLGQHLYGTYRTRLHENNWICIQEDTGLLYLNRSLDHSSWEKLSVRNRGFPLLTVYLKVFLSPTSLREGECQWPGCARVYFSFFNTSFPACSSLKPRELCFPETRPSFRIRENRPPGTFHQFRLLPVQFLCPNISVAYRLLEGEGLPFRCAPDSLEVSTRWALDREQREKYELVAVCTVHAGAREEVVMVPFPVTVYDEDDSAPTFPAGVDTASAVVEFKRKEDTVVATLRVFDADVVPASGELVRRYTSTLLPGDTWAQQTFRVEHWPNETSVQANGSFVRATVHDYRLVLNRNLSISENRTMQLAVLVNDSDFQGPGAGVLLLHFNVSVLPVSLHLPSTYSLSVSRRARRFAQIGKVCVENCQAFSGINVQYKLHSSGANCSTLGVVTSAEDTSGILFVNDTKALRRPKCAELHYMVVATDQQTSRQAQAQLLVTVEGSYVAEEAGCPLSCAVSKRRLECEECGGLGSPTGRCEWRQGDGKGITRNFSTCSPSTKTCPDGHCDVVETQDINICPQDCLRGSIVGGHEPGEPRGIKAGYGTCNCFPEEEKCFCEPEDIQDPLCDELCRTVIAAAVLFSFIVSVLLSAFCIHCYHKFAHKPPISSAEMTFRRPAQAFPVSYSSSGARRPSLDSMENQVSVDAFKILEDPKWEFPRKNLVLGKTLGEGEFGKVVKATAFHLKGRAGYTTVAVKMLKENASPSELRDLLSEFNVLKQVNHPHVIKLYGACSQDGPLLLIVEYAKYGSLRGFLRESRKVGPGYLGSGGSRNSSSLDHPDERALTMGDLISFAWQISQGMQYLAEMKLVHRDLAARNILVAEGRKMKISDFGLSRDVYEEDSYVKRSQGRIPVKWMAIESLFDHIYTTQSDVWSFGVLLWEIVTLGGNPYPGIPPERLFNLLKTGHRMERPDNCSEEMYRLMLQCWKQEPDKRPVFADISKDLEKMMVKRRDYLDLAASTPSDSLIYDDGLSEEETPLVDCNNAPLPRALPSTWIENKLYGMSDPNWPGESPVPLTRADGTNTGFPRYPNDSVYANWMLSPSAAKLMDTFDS
# Sequence of UniProt P15056 (whole entry, looked up): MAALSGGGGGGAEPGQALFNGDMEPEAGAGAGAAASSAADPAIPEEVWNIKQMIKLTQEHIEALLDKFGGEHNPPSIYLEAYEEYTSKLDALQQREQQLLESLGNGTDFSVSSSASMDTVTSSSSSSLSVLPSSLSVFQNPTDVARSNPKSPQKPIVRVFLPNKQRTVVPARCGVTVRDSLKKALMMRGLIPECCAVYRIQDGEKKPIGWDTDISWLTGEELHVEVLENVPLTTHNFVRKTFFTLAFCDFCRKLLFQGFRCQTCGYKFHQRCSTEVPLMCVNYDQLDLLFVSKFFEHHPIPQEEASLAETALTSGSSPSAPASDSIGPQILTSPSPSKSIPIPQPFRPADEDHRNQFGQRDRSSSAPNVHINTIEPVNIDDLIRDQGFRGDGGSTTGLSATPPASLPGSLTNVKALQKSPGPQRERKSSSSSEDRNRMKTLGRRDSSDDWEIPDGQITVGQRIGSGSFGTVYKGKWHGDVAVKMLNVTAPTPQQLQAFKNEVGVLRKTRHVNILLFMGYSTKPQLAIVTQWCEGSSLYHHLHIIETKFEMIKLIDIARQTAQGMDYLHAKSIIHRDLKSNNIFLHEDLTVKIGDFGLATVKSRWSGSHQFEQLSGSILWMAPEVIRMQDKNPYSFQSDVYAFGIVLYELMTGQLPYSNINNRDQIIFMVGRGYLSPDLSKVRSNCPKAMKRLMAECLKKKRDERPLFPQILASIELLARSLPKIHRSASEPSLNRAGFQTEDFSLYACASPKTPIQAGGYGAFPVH
# Sequence of UniProt Q13882 (whole entry, looked up): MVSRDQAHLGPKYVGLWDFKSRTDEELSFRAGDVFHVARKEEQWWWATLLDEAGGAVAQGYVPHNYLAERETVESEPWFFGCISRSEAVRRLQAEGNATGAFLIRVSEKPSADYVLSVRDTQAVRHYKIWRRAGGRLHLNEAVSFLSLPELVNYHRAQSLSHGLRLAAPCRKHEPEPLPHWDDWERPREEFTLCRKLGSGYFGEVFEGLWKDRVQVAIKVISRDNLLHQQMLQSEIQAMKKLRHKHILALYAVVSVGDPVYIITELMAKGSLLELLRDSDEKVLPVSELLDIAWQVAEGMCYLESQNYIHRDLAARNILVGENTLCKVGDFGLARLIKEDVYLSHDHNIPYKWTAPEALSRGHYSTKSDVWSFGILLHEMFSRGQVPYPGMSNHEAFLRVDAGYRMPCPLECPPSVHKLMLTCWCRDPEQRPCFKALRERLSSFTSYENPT

# Series 1 — effect on: enzyme activity; mode: inhibitor; tested at: 0.5 µM; relative to: control
# Target: Interleukin-1 receptor-associated kinase 1 (IRAK1, Homo sapiens, UniProt P51617)
# Sequence of UniProt P51617 (whole entry, looked up): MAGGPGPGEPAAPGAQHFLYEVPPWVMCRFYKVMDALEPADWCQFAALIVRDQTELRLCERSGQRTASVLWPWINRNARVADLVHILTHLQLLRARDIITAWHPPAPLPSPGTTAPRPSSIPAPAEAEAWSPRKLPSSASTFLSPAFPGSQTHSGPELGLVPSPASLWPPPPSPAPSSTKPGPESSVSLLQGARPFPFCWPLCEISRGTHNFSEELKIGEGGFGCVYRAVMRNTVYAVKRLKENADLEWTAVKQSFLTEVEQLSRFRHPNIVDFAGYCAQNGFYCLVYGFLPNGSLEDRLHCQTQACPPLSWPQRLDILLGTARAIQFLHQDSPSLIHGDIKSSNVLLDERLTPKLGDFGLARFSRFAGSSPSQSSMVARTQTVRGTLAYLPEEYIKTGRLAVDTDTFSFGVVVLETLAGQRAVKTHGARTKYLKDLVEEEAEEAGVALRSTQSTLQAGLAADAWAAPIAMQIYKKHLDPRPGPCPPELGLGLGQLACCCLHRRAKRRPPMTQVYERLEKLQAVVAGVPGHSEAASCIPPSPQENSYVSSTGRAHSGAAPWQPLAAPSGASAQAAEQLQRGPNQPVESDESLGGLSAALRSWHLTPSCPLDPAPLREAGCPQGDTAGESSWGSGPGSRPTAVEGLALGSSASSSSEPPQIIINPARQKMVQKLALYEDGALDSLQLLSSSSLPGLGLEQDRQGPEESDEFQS
SMILES,remaining activity [%]
Nc1ccc2ncnc(NCCc3ccc(Oc4ccccc4)cc3)c2c1,107
O=C1NC(=O)C(c2cn(CCCO)c3ncccc23)=C1c1cnccn1,76.6
Cc1ccc(NC(=O)c2ccc(CN3CCN(C)CC3)cc2)cc1Nc1nc(-c2cccnc2)cs1,104
COc1cc2ncnc(Nc3ccc(F)c(Cl)c3)c2cc1OCCCN1CCOCC1,57.6
COc1ccc(OC)c2c(=S)c3ccccc3[nH]c12,91.1
CN(C)c1ccc(C=C2C(=O)Nc3ccccc32)cc1,102
CCOC(=O)c1c(C)[nH]c(/C=C2\C(=O)Nc3ccccc32)c1C,111
Cn1sc(=O)n(Cc2ccccc2)c1=O,116
CNC(=O)c1cc(Oc2ccc(NC(=O)Nc3ccc(Cl)c(C(F)(F)F)c3)cc2)ccn1,101
CO[C@H]1C[C@@H]2CC[C@@H](C)[C@@](O)(O2)C(=O)C(=O)N2CCCC[C@H]2C(=O)O[C@H]([C@H](C)C[C@@H]2CC[C@@H](O)[C@H](OC)C2)CC(=O)[C@H](C)/C=C(\C)[C@@H](O)[C@@H](OC)C(=O)[C@H](C)C[C@H](C)/C=C/C=C/C=C/1C,118
Nc1ncnc2n[nH]c(Nc3ccc(F)cc3)c12,91.8
NCCNc1ncc(C(N)=O)c(Nc2cccc(C(F)(F)F)c2)n1,109
O=S(=O)(c1cccc2cnccc12)N1CCCNCC1,86.2
O=c1c2ccccc2[nH]c(=S)n1CCN1CCC(=C(c2ccc(F)cc2)c2ccc(F)cc2)CC1,106
O=C(Nc1cccc(Nc2cc(Nc3cccc(C(F)(F)F)c3)ncn2)c1)C1CC1,111
Cc1cccc(-c2[nH]c(C(C)(C)C)nc2-c2ccc3c(c2)OCO3)n1,118

# Series 2 — effect on: cell-free assay; method: competition with immobilised ligand; tested at: 1 µM
# SMILES: O=C(NC[C@@H]1[C@H]2CN(C(=O)OCc3cc(C(F)(F)F)cc(C(F)(F)F)c3)C[C@@H]12)c1ccc2[nH]nnc2c1
target,remaining binding [%]
"CDK5 (Homo sapiens, UniProt Q00535)",100
"PTK6 (Homo sapiens, UniProt Q13882)",96
"BRAF (Homo sapiens, UniProt P15056)",98
"STK17B (Homo sapiens, UniProt O94768)",91
"SRPK3 (Homo sapiens, UniProt Q9UPE1)",100
"MAP4K3 (Homo sapiens, UniProt Q8IVH8)",89
"PIK3CA (Homo sapiens, UniProt P42336, E545A)",96
"Ribosomal protein S6 kinase alpha-5, C-terminal kinase domain (RPS6KA5, Homo sapiens, UniProt O75582)",100
"TEK (Homo sapiens, UniProt Q02763)",89
"TYRO3 (Homo sapiens, UniProt Q06418)",75
"EGFR (Homo sapiens, UniProt P00533, G719C)",100
"RET (Homo sapiens, UniProt P07949, V804M)",88
"LIM domain kinase 1 (LIMK1, Homo sapiens, UniProt P53667)",100
"STK35 (Homo sapiens, UniProt Q8TDR2)",100

# Series 3 — host: human; medium: microsomes or S9; tested at: 2 µM; time: 0.5 h
SMILES,remaining compound [%]
CCN(CC)S(=O)(=O)c1ccc(NC(=O)C(C)N(c2ccc(C)c(C)c2)S(C)(=O)=O)cc1 (centres unmarked),79.4
CC1(C)OC2CC(=O)OCC23C1CC(=O)C1(C)C3CC[C@@]2(C)[C@H](c3ccoc3)OC(=O)C3OC312 (some centres unmarked),91.2
Cn1c(=O)c2[nH]c(N3CCN(c4cccc(O)c4)CC3)nc2n(C)c1=O,65.2
O=c1c(O)c(-c2ccccc2)oc2cc(O)ccc12,2.34
C=C1COC(c2cc(C)cc(C)c2)c2c(C(C)C)c(OC)nc(=O)n21 (centres unmarked),41.8

# Series 4 — method: Incucyte 3D growth; tested at: 30 µM; direction: higher = more growth
# Compound: CC(C)(C(=O)O)[C@H](NC(=O)Cc1cccc(I)c1)c1ccc2oc(=O)[nH]c2c1
cell line,setting,spheroid area
MEL-JUSO,216.52 h,1.54e+07 a.u. and 1.56e+07 a.u. and 1.79e+07 a.u. and 2.16e+07 a.u. and 2.56e+07 a.u.
MEL-JUSO,162.52 h,1.75e+07 a.u. and 2.11e+07 a.u. and 1.93e+07 a.u. and 1.63e+07 a.u. and 1.55e+07 a.u. and 1.79e+07 a.u.
IPC-298,156 h,2.61e+07 a.u. and 2.7e+07 a.u. and 3.02e+07 a.u. and 2.6e+07 a.u. and 3.23e+07 a.u. and 2.28e+07 a.u.

# Excerpt of the above (series 2):
target,remaining binding [%]
"SRPK3 (Homo sapiens, UniProt Q9UPE1)",100
"Ribosomal protein S6 kinase alpha-5, C-terminal kinase domain (RPS6KA5, Homo sapiens, UniProt O75582)",100
